Experimental data of several laboratories.
Lines come from different studies, so protocols differ. Several values in a cell are separate wells, animals, samples, runs or records. ± marks the error that the study gave.
Dehaloperoxidase B ferric: Dehaloperoxidase B, ferric (Amphitrite ornata, UniProt Q9NAV7)
KEAP1 Kelch domain: Kelch-like ECH-associated protein 1, Kelch domain (KEAP1, Homo sapiens, UniProt Q14145)
UniProt Q14145, sequence (whole entry, looked up): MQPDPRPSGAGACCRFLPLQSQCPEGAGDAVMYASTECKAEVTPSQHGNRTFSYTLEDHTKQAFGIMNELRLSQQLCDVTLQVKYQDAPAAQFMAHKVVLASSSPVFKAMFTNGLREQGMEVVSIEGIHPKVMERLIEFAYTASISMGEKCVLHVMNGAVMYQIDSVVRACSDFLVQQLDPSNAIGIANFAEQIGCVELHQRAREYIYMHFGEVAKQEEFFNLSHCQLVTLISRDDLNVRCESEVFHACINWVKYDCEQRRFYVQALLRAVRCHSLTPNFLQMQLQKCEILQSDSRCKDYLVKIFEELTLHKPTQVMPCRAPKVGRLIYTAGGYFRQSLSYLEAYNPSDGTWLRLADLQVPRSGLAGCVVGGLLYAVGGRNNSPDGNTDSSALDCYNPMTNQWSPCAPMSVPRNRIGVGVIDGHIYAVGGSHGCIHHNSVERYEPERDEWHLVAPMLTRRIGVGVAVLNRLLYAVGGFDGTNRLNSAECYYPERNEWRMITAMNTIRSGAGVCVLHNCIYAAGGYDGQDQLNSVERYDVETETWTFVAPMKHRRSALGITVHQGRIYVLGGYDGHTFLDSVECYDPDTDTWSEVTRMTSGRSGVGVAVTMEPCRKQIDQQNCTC
MT-CYB/UQCRFS1: MT-CYB/UQCRFS1 (Homo sapiens, UniProt P00156+P47985)
UniProt P00156, sequence (whole entry, looked up): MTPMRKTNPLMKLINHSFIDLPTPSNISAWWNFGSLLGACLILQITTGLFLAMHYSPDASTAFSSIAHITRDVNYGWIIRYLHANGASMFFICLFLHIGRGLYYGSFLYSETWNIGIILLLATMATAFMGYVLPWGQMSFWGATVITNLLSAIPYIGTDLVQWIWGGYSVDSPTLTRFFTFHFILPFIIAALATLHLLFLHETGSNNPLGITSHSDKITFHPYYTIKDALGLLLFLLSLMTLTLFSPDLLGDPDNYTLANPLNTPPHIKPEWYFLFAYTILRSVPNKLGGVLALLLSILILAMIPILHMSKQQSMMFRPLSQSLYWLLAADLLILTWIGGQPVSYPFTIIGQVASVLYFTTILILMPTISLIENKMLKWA
UniProt Q16774, sequence (whole entry, unmodified, looked up): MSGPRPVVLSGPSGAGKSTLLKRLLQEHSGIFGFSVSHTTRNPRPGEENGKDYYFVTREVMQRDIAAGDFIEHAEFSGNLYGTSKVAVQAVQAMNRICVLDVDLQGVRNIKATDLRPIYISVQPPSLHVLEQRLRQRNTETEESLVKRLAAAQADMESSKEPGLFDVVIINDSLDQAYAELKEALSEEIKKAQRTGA
UniProt P63092, sequence (whole entry, looked up): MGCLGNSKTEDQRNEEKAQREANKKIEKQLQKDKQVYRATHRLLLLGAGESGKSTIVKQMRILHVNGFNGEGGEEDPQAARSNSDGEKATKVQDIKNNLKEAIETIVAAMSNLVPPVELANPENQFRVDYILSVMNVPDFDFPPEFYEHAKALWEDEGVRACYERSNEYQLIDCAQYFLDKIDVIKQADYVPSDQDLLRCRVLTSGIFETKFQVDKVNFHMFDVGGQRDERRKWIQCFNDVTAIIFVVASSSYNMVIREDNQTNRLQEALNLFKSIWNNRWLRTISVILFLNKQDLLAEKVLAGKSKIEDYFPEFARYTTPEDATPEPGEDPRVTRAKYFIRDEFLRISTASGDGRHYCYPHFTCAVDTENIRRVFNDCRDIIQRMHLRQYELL
UniProt P47985, sequence (whole entry, looked up): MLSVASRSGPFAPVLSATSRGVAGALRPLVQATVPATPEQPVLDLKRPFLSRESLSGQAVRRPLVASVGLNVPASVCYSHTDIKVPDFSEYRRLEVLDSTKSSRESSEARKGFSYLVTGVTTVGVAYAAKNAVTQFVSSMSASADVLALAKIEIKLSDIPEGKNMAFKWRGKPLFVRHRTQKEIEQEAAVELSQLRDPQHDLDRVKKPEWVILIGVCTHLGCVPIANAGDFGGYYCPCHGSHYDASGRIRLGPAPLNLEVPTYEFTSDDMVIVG
UniProt P51575, sequence (whole entry, unmodified, looked up): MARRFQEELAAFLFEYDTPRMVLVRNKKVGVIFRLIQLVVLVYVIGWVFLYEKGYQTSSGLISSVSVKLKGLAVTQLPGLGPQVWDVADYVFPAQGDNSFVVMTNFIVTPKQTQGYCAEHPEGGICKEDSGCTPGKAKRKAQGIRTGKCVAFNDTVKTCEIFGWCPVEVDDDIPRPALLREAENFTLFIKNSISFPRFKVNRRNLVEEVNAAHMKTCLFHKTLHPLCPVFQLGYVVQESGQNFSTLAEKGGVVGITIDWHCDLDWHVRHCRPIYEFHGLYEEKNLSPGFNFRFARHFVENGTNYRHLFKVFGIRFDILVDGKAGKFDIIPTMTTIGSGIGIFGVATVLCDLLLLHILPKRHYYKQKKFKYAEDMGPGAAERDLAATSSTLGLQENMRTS
UniProt O43914, sequence (whole entry, looked up): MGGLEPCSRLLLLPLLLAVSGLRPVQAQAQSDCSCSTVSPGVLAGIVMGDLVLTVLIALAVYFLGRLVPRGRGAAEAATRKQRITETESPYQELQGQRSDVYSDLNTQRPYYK
UniProt Q9Z2X8, sequence (whole entry, looked up): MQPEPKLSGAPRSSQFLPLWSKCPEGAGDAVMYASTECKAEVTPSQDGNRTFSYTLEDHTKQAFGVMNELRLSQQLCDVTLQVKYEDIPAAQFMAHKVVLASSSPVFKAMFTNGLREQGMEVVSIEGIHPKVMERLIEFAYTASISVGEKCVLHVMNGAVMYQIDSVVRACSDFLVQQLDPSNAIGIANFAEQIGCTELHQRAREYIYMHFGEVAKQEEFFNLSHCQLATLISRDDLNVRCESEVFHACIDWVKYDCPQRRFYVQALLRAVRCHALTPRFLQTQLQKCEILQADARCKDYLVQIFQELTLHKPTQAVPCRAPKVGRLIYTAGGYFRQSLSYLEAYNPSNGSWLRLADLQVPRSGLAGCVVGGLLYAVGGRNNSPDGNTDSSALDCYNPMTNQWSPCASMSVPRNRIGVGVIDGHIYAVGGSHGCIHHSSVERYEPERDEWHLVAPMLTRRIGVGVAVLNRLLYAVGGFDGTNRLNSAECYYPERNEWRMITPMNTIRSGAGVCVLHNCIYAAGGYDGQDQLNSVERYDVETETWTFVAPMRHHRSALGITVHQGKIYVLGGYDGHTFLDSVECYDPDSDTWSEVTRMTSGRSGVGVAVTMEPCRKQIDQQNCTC
UniProt Q9Y5A9, sequence (whole entry, looked up): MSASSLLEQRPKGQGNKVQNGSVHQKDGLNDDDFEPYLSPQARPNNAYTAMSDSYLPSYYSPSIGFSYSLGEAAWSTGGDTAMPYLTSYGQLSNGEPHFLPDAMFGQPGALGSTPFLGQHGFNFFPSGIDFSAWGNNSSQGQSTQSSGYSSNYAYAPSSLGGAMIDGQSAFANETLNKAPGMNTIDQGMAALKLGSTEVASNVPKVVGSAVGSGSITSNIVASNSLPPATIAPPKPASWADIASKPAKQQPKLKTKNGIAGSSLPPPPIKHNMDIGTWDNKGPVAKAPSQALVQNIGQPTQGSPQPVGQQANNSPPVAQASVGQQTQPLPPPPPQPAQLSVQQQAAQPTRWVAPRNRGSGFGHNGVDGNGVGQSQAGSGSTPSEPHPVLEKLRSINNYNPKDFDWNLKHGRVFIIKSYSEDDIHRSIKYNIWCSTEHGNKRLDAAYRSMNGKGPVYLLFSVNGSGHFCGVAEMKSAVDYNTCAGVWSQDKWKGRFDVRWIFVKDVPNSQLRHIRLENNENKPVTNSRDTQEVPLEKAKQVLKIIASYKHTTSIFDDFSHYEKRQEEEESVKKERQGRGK
UniProt Q96CH1, sequence (whole entry, looked up): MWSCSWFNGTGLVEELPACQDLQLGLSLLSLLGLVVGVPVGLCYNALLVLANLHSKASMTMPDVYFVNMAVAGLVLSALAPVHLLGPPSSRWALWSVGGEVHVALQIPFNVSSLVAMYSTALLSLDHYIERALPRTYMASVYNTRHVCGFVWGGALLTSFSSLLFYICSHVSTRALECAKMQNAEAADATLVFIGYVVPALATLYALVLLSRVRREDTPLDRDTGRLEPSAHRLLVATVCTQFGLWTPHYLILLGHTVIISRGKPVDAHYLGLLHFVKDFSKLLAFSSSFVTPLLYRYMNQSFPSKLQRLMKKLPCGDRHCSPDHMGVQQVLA
UniProt Q9P0L9, sequence (whole entry, looked up): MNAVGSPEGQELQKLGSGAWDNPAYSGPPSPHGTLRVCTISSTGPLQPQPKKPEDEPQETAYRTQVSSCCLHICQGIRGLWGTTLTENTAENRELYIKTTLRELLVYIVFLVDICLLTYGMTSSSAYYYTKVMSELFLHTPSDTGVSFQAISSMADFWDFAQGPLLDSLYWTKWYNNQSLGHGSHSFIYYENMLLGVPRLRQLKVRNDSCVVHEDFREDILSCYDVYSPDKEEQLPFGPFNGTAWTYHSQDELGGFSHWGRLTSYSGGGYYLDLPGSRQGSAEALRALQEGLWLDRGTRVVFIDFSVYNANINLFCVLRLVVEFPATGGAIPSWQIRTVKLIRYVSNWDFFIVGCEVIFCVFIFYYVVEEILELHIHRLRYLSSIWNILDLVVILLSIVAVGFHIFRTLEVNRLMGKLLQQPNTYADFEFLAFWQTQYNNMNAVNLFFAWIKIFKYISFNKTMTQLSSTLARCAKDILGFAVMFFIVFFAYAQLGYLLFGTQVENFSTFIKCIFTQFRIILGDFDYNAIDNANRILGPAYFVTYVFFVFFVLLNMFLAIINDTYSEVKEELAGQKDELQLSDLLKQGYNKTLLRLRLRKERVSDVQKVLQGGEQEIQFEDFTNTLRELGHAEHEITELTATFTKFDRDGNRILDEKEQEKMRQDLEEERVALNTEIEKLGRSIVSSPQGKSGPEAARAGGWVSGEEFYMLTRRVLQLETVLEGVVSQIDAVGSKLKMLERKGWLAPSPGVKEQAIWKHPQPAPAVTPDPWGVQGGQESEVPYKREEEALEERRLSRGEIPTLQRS
UniProt Q8K3Y3, sequence (whole entry, looked up): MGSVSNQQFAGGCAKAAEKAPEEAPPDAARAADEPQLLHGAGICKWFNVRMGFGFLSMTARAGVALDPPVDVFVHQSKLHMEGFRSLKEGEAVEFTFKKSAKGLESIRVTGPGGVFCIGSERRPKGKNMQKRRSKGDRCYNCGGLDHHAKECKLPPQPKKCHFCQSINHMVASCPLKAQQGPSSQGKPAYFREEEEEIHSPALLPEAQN

Compound	target or system	assay	test system	setting	scale	endpoint	value
CCCCCCCC/C=C\CCCCCCCC(=O)NCCc1ccc(O)c(O)c1	Trpv1 (Mus musculus, UniProt Q704Y3, R580K)	ion current, agonist, whole-cell patch clamp	–	R580K	–	Hill coefficient	2.17 ± 0.58
CCN1CCC[C@H]1CNC(=O)c1c(O)c(Cl)cc(Cl)c1OC	G-protein coupled receptor 146 (GPR146, Homo sapiens, UniProt Q96CH1)	β-arrestin recruitment, TANGO luminescence, item: GPR146	–	concentration not given	baseline: basal luminescence	log2 fold change	1.15
COc1cc2c(c(OC)c1OC)C(=O)c1c(cc(C)c(O)c1OC)C2=O	HK-2 co-cultured with HepaRG	MTT	–	133.33 µM, 24 h	baseline: untreated control	viability	59.5 ± 2.46%
O=CNc1ccc(Br)cc1C=O	Dehaloperoxidase B ferric	product, HPLC	–	with: 5-bromoindole 500 µM, H2O2 100 µM	–	share of total products	0.6%
CN1CCN(c2cc(-c3ccncc3)c(-c3ccc4ccccc4c3)nn2)CC1	PTAFR (Homo sapiens, UniProt P25105)	agonist, FLIPR	–	12.5 µM	–	activation	-1.7%
CC(C)CC(=O)N[C@H](C(=O)N[C@H](C(=O)N[C@@H](CC(C)C)[C@@H](O)CC(=O)N[C@@H](C)C(=O)N[C@@H](CC(C)C)[C@@H](O)CC(=O)NCCCC[C@H](NC(=O)CCOCCOCCNC(=O)CN1CCN(CC(=O)O)CCN(CC(=O)O)CC1)C(=O)O)C(C)C)C(C)C	Cathepsin D (CTSD, Homo sapiens, UniProt P07339)	surface plasmon resonance	–	–	–	association rate constant	333 M⁻¹ s⁻¹
CC[C@H](C)[C@H](NC(C)=O)C(=O)N[C@@H](CC(N)=O)C(=O)N[C@H](C(=O)N[C@@H](CCCNC(=N)N)C(=O)N[C@@H](CCCCN)C(=O)N[C@@H](CCCNC(=N)N)C(=O)N[C@@H](CC(N)=O)C(=O)N[C@H](C(=O)N[C@@H](CCC(=O)O)C(=O)N[C@@H](CO)C(=O)NCC(=O)N[C@@H](CCC(=O)O)C(=O)N[C@@H](CCC(=O)O)C(=O)N[C@@H](CCC(=O)O)C(=O)N[C@@H](CC(C)C)C(=O)N[C@@H](C)C(=O)N[C@@H](CO)C(=O)N[C@@H](CCCCN)C(=O)N[C@@H](CC(C)C)C(=O)N[C@@H](CC(=O)O)C(N)=O)C(C)C)C(C)C	KEAP1 Kelch domain	binding, ITC	–	pH 7, 298.15 K	–	ΔG	-38.49 ± 0.126 kJ/mol
CC(=O)c1n[nH]c2ccc(-c3cnc4ccc(N(C)C5CCOCC5)nn34)cc12	TYRO protein tyrosine kinase-binding protein, with TREM1 (TYROBP, Homo sapiens, UniProt O43914)	inhibitor	split luciferase reporter cells	1 µM, after wash	baseline: without wash	TREM1/DAP12 reporter signal	no effect
CC(C)C[C@@H](C=O)NC(=O)[C@H](CC(C)C)NC(=O)[C@H](CC(C)C)NC(=O)OCc1ccccc1	Protein transport protein Sec61 subunit alpha isoform 1 (Homo sapiens, UniProt P61619)	Sec61-dependent translocation, inhibitor, item: CD4 signal peptide-FLuc reporter	HEK293	concentration not given, 6 h	–	FLuc/RLuc ratio	0.276
NC(=O)NOCCCCCCCCCCCC[P+](c1ccccc1)(c1ccccc1)c1ccccc1.O=C([O-])C(F)(F)F	MT-CYB/UQCRFS1	complex III-dependent respiration, Seahorse XF96	HCT-116	7.5 µM, 24 h	baseline: control	oxygen consumption rate	24.6 ± 2.19%
CCOCc1nc(O)c(-c2nnc(Cc3ccc(Cl)cn3)o2)c(O)c1-c1c(OC)cccc1OC	cardiovascular GPCR panel human	–	–	up to 30 µM	–	activity	inactive
CC[N+](CC)(CC)CC(=O)Nc1c(C)cccc1C	PKD2L1 (Homo sapiens, UniProt Q9P0L9)	ion current, whole-cell patch clamp	–	100 µM, extracellular application	–	time to steady-state inhibition	> 7 min
O=c1nc(SCc2cc(F)cc(C(F)(F)F)c2)nc(SCc2ccc3nc(OCCN4CCOCC4)ccc3c2)[nH]1	TOP2A (Homo sapiens, UniProt P11388)	decatenation	–	7.8 µM, replicate 1	–	decatenated DNA	90.5%
CCn1c(-c2nc3cc(C(=O)N4CCC[C@@H](N)C4)cc(OC)c3n2C)cc2cccnc21	PADI3 (Homo sapiens, UniProt Q9ULW8)	enzyme activity, cell lysate	HEK293 expressing PADI3	100 µM, with: calcium 2 mM	–	citrullination	no effect
NC(Cc1cc(I)c(Oc2cc(I)c(O)c(I)c2)c(I)c1)C(=O)O (centres unmarked)	SLC16A2 (Homo sapiens, UniProt P36021)	transport, substrate	transfected COS-1 cells	–	baseline: empty vector cells	uptake	increased
O=C(O)c1ccc(Nc2ncc3c(n2)-c2ccc(Cl)cc2C(c2c(F)cccc2F)=NC3)cc1	NEK7(h)	kinase activity	–	1 µM	–	remaining activity	99%
[O-][S+]1CCCCS1 (centres unmarked)	SOD1 (Homo sapiens, UniProt P00441, G94A)	LC-MS	brain homogenate	5 µM, 1 h, 37 °C	–	SOD1 dimer fraction	1.4%
NC(=O)NOCCCCCCCCCCCCCCCC[P+](c1ccccc1)(c1ccccc1)c1ccccc1.O=C([O-])C(F)(F)F	MT-CYB/UQCRFS1	complex III-dependent respiration, Seahorse XF96	HCT-116	5 µM, 24 h	baseline: control	oxygen consumption rate	36.4%

Compound	target or system	assay	test system	setting	scale	endpoint	value
COc1cc(/C=C/c2ccc(O)cc2)cc(OC)c1	O-methyltransferase (Sorghum bicolor, UniProt A0A1B6PFV1)	biolayer interferometry	–	with: saturating SAM	baseline: SAM-bound over apo	koff ratio	2.38 fold
Cc1cc(CSC(=N)N)c(C)cc1CSC(=N)N	Protein lin-28 homolog A (Mus musculus, UniProt Q8K3Y3)	–	–	–	–	Hill slope	-1.9
Nc1nc2c(ncn2[C@@H]2O[C@H](COP(=O)(O)O)[C@@H](O)[C@H]2O)c(=O)[nH]1	GUK1 (Homo sapiens, UniProt Q16774, T83A)	enzyme activity, NADH-coupled	–	31.25 µM	–	reaction rate	7.26 s⁻¹ and 4.77 s⁻¹ and 6.69 s⁻¹
[H]/N=C(/N)NCC(=O)O	SLC6A6 (Homo sapiens, UniProt P31641, L306A)	binding, microscale thermophoresis	–	1.95 µM, room temperature, with: 50 nM labelled protein	higher = more binding	normalised MST signal	0.0228
CC(=O)N[C@@H](C)C(=O)N[C@@H](CC(N)=O)C(=O)NCC(=O)N[C@@H](CC(N)=O)C(=O)N[C@@H](C)C(=O)N[C@@H](CC(N)=O)C(=O)N[C@@H](CCC(=O)O)C(=O)N[C@@H](CCC(=O)O)C(=O)N[C@@H](CC(N)=O)C(=O)NCC(=O)N[C@@H](CCC(=O)O)C(=O)N[C@@H](CCC(N)=O)C(=O)N[C@@H](CCC(=O)O)C(=O)N[C@@H](C)C(=O)N[C@@H](CC(=O)O)C(=O)N[C@@H](CC(N)=O)C(=O)N[C@@H](CCC(=O)O)C(=O)N[C@H](C(=O)N[C@@H](CC(=O)O)C(N)=O)C(C)C	KEAP1 Kelch domain	binding, ITC	–	pH 7, 298.15 K	–	TΔS	-42.2 kJ/mol
Nc1ncnc2c1ncn2[C@@H]1O[C@H](COP(=O)(O)OP(=O)(O)OP(=O)(O)O)[C@@H](O)[C@H]1O	CKMT1A (Homo sapiens, UniProt P12532)	substrate, ADP-Glo luminescence	–	pH 8.5, forward reaction, WT mutant, with: second substrate in excess	–	kcat	21 ± 9 s⁻¹
O=C1C=Nc2ccc(Br)cc21	Dehaloperoxidase B ferric	product, HPLC	–	5 min, pH 7, 25 °C, enzyme 10 µM, with: 5-bromoindole and H2O2 500 µM each	–	product formed	118 M
NC(=O)NO	MT-CYB/UQCRFS1	complex III-dependent respiration, Seahorse XF96	HCT-116	500 µM, 24 h	baseline: control	oxygen consumption rate	88.9 ± 7.09%
Nc1ncnc2c1ncn2[C@@H]1O[C@H](COP(=O)(O)OP(=O)(O)O)[C@@H](O)[C@H]1O	GUK1 (Homo sapiens, UniProt Q16774)	ITC	–	molar ratio 1.955	–	ΔH	-1.74 kJ/mol
O=C(O)/C=C/c1ccc(O)c(O)c1	KEAP1 (Homo sapiens, UniProt Q14145)	native mass spectrometry	–	1:5 protein:compound ratio, 30 min	–	hexamer abundance	decreased
Nc1ncnc2c1ncn2[C@@H]1O[C@H](COP(=O)(O)CP(=O)(O)OP(=O)(O)O)[C@@H](O)[C@H]1O	P2X purinoceptor 1 (P2RX1, Homo sapiens, UniProt P51575, R139P)	saturation binding	HEK293	1 nM	–	specific binding	18 CCPM and 18.5 CCPM
Nc1nc2c(ncn2[C@@H]2O[C@@H]3COP(=O)(O)O[C@H]4[C@@H](O)[C@H](n5cnc6c(=O)[nH]c(N)nc65)O[C@@H]4COP(=O)(O)O[C@H]3[C@H]2O)c(=O)[nH]1	Cell cycle histidine kinase CckA, CA domain (Caulobacter vibrioides, UniProt Q9X688)	isothermal titration calorimetry	Caulobacter crescentus	concentration not given, 12 °C, with: AMPPNP 5 mM	–	binding enthalpy (ΔH)	8.37 kJ/mol
CCCCC[C@H](O)/C=C/[C@H]1[C@H](O)CC(=O)[C@@H]1C/C=C\CCCC(=O)O	GNAS, with Gbeta and Ggamma (Homo sapiens, UniProt P63092)	modulator	–	100 µM, without A2AR	baseline: Gs alone	GTP hydrolysis	76.8% and 91.8% and 94.7% and 89.6%
CN1CCC(=C2c3ccccc3Sc3ccccc32)CC1	HTR1F (Homo sapiens, UniProt P30939)	agonist	–	concentration not given	–	agonist activity	inactive
CC(=O)N/C(=C\c1ccc(Cc2nc3c([nH]2)C(=O)c2ccccc2C3=O)cc1)c1nc2c([nH]1)C(=O)c1ccccc1C2=O	Kelch-like ECH-associated protein 1, with NRF2 (Mus musculus, UniProt Q9Z2X8)	binding	–	concentration not given, biochemical	–	activity class	inactive
COc1cc(O)c2c(c1)C(=O)c1cc(C)cc(O)c1C2=O	HK-2 co-cultured with HepaRG	MTT	–	66.67 µM, 24 h	baseline: untreated control	viability	104 ± 15%
O=C(O)[C@@H]1CCCN1c1ncnc2[nH]cnc12 (racemic)	YTHDF2 (Homo sapiens, UniProt Q9Y5A9)	binding, affinity selection mass spectrometry	–	–	baseline: other proteins in batch	fold enrichment	1.32

For quick reference, copied from above:
Compound	target or system	assay	test system	setting	scale	endpoint	value
Nc1nc2c(ncn2[C@@H]2O[C@H](COP(=O)(O)O)[C@@H](O)[C@H]2O)c(=O)[nH]1	GUK1 (Homo sapiens, UniProt Q16774, T83A)	enzyme activity, NADH-coupled	–	31.25 µM	–	reaction rate	7.26 s⁻¹ and 4.77 s⁻¹ and 6.69 s⁻¹
CCN1CCC[C@H]1CNC(=O)c1c(O)c(Cl)cc(Cl)c1OC	G-protein coupled receptor 146 (GPR146, Homo sapiens, UniProt Q96CH1)	β-arrestin recruitment, TANGO luminescence, item: GPR146	–	concentration not given	baseline: basal luminescence	log2 fold change	1.15
CCCCCCCC/C=C\CCCCCCCC(=O)NCCc1ccc(O)c(O)c1	Trpv1 (Mus musculus, UniProt Q704Y3, R580K)	ion current, agonist, whole-cell patch clamp	–	R580K	–	Hill coefficient	2.17 ± 0.58
CCOCc1nc(O)c(-c2nnc(Cc3ccc(Cl)cn3)o2)c(O)c1-c1c(OC)cccc1OC	cardiovascular GPCR panel human	–	–	up to 30 µM	–	activity	inactive
CCCCC[C@H](O)/C=C/[C@H]1[C@H](O)CC(=O)[C@@H]1C/C=C\CCCC(=O)O	GNAS, with Gbeta and Ggamma (Homo sapiens, UniProt P63092)	modulator	–	100 µM, without A2AR	baseline: Gs alone	GTP hydrolysis	76.8% and 91.8% and 94.7% and 89.6%
